Results from different studies.
Lines come from different studies, so protocols differ. “And” joins repeats or separate records; there may be more than shown. ± marks the error that the study gave.

Compound | assay | system | setting | how to read | measurement | result
COc1ccc2[nH]c([S+]([O-])Cc3ncc(C)c(OC)c3C)nc2c1 (stereo not drawn) | – | healthy Chinese volunteers CYP2C19 NM, plasma | oral, 20 mg single dose, enteric-coated tablets | – | AUC(0-t) | 457 ± 337 ng·h/mL
O=C(CSc1nnc(-c2ccncc2)o1)Nc1ccc(F)cc1 | – | octanol/buffer | pH 11, known kinase inactives set | – | logP | 0.08
COc1cc2c(Nc3ccc(Cl)c(Cl)c3F)ncnc2cc1OC[C@@H]1C[C@@H]2CN(C)C[C@@H]2C1 | – | FVB Mdr1a/b(-/-) Bcrp1(-/-) mouse | oral, 70 mg/kg, 2 h | – | total brain concentration | 10000 ng/mL
Cc1cc(C)c(S(=O)(=O)NCc2ccccn2)cc1C | – | octanol/buffer | pH 11 | – | logP | 2.55
CC(C)(C(=O)N1CCOc2c(C#N)cncc2C1)C(F)F | – | human, both sexes | oral, 40 mg single dose | – | subjects with investigations TEAE | 0%
CC[C@H](C)[C@@H]1NC(=O)[C@@](C)(NC(=O)[C@H](CCCNC(=N)N)NC(=O)[C@H](CC(C)C)NC(=O)[C@@H](NC(=O)[C@H](CCC(N)=O)NC(=O)[C@H](CC(C)C)NC(C)=O)[C@@H](C)O)CCCC=CCCC[C@@](C)(C(=O)N[C@@H](CC(C)C)C(=O)N[C@@H](Cc2ccc3ccccc3c2)C(N)=O)NC(=O)[C@H](CCCNC(=N)N)NC(=O)[C@H](CCC(N)=O)NC1=O | – | BALB/c mouse | intravenous, 5 mg/kg | – | Vz | 0.005 L
Cc1cc(Nc2ccc(S(F)(F)(F)(F)F)cc2)n2nc(C(C)(F)F)nc2n1 | – | Plasmodium vivax malaria patients | oral, 400 mg | – | adverse event Vomiting | 0%
CN1CCN(c2cccc3c2CCN(C(=O)/C=C/c2c(-n4cnnn4)ccc(Cl)c2F)[C@@H]3C(=O)Nc2ccc(C(=O)O)cc2)C(=O)C1 | – | healthy human subjects | intravenous infusion, 1 mg/h, 5 days | – | subjects with skin irritation | 11.1%
C[C@@H]1CCO[C@H]2Cn3cc(C(=O)NCc4ccc(F)cc4F)c(=O)c(O)c3C(=O)N12 | – | Tat- transgenic mouse, hippocampus | subcutaneous osmotic pump, dose not given, 5 d | – | drug concentration | 4800 ± 1100 ng/g
CN[C@H]1C(=O)N[C@@H]2Cc3ccc(cc3)Oc3cc4cc(c3O[C@@H]3O[C@H](C(=O)O)[C@@H](O)[C@H](O)[C@H]3NC(=O)CCCCCCCCC(C)C)Oc3ccc(cc3Cl)[C@@H](O)[C@@H]3NC(=O)[C@H](NC(=O)[C@@H]4NC(=O)[C@@H](NC2=O)c2cc(cc(O)c2Cl)Oc2cc1ccc2O)c1ccc(O)c(c1)-c1c(O[C@H]2O[C@H](CO)[C@@H](O)[C@H](O)[C@@H]2O)cc(O)cc1[C@@H](C(=O)NCCCN(C)C)NC3=O | population PK model | paediatric patients | dose not given, reference weight 70 kg | – | second peripheral volume | 5.57 L
CCOc1c([C@H](C)n2nc(C)c3c(N)ncnc32)cc(Cl)c(F)c1[C@@H]1CNC(=O)C1 | – | patients, monotherapy | oral, 45 mg once daily, cycle 1 day 15 | – | Tmax median | 0.5 h
COc1ncc(-c2nc3c(n2C(C)C)[C@H](c2ccc(Cl)cc2)N(c2cc(Cl)cn(C)c2=O)C3=O)c(OC)n1 | LC-MS/MS | human, plasma | oral, 15 mg, cycle 1 day 1, low-dose arm | – | AUC(0-last) | 1300 ng·h/mL
NC1(C(=O)N[C@@H](CCO)c2ccc(Cl)cc2)CCN(c2nc[nH]c3nccc2-3)CC1 | – | human, plasma | oral, 320 mg twice daily, together with: enzalutamide 160 mg daily | – | dose-normalised AUC(0-last) | 1160 ng·h/mL and 1100 ng·h/mL and 1840 ng·h/mL
C[Si]1(C)O[Si](C)(C)O[Si](C)(C)O[Si](C)(C)O[Si](C)(C)O1 | – | – | 0.001 to 0.003 µg/L, 34.8 °C | – | log KOA | 4.67
CCN1/C(=C/C(C)=O)Sc2ccc(F)cc21 | – | cynomolgus monkey | oral, 100 mg/kg, 6 h post-dose | – | heart rate | 94 ± 21 beats/min
CC(C)NCCCC[C@@H]1NC(=O)[C@H](Cc2ccc(O)cc2)NC(=O)[C@H](Cc2ccccc2)NC(=O)CC[C@H](C(=O)N[C@@H](CCCCNC(C)C)C(=O)N[C@@H](CCCCNC(=O)[C@H](CCC(=O)O)NC(=O)[C@H](CCC(=O)O)NC(=O)[C@H](CCC(=O)O)NC(=O)CN2CCN(CC(=O)O)CCN(CC(=O)O)CCN(CC(=O)O)CC2)C(N)=O)NC(=O)CNC(=O)[C@H](Cc2ccc3ccccc3c2)NC(=O)[C@@H](CCCNC(=N)N)NC1=O [gallium-68 labelled] | – | mouse with Daudi xenograft, stomach | intravenous, 2 h | – | tissue uptake | 0.07 %ID/g
Cn1nc2c(=O)n(C3CC3)ccc2c1[C@](O)(c1ccc(C(F)(F)F)nc1)C1CC1 | – | rat Sprague-Dawley male, blood | intravenous, 1 mg/kg | – | CLint,u | 15.6 mL/min/kg
N=C(N)NS(=O)(=O)c1ccc(N/C=C2\C(=O)Nc3ccccc32)cc1 | – | octanol/buffer, 40 mM buffer | pH 11 | – | logP | 1.72
N#C[C@@]12C[C@@H]1[C@@H](n1cnc3c(N[C@@H](C4CCC4)C4CC4)nc(I)nc31)[C@H](O)[C@@H]2O | – | Wistar rats male, plasma | oral, 3.0 mg/kg | – | elimination rate constant | 4.47e-05 s⁻¹
C[C@H]1O[C@@H](O[C@H]2[C@@H](O)C[C@H](O[C@H]3[C@@H](O)C[C@H](O[C@H]4CC[C@@]5(C)[C@H](CC[C@@H]6[C@@H]5C[C@@H](O)[C@]5(C)[C@@H](C7=CC(=O)OC7)CC[C@]65O)C4)O[C@@H]3C)O[C@@H]2C)C[C@H](O)[C@@H]1O | measured: vascular disorders | healthy men | oral, dose not given, 8 days, treatment-emergent, crossover trial | – | subjects with adverse event | 0%
Cc1cccc(CNC(=O)c2cn(CCNC(=O)c3ccccc3Sc3c([N+](=O)[O-])ncn3C)c3cc4c(cc3c2=O)OCO4)n1 | – | cynomolgus monkey, whole blood | 1 µM, 2 h | – | remaining compound | 78.4%
CNCc1ccc(-c2[nH]c3cc(F)cc4c3c2CCNC4=O)cc1 | – | patients | oral, 600 mg twice daily, grade 1 | – | decreased appetite incidence | 26.9%
CC(C)C[C@H](NC(=O)[C@@H](Cc1c[nH]c2ccccc12)NC(=O)[C@H](Cc1ccc(O)cc1)NC(=O)[C@H](CO)NC(=O)[C@H](Cc1c[nH]c2ccccc12)NC(=O)[C@H](Cc1c[nH]cn1)NC(=O)[C@@H]1CCC(=O)N1)C(=O)N[C@@H](CCCNC(=N)N)C(=O)N1CCC[C@H]1C(=O)NCC(N)=O | – | Chinese CPP children, overall | intramuscular, 22.5 mg, 12 months, day 1, month 6 | – | patients, drug-related metabolic TEAEs | 4.5%

Compound | assay | system | setting | how to read | measurement | result
O=C(Nc1nc2cccc(-c3ccc(CN4CCS(=O)(=O)CC4)cc3)n2n1)C1CC1 | measured: body temperature increased | human rheumatoid arthritis patients | oral, 75 mg once daily, 4 weeks, regardless of relatedness | – | treatment-emergent adverse events | 0%
CN(C)C(=O)c1cc2cnc(Nc3ccc(-c4ccc5c(=O)cc(N6CCOCC6)oc5c4)cc3)nc2n1C1CCCC1 | – | BALB/c mouse, lung | oral, 20 mg/kg, 2 h | – | concentration | 598 ± 412 ng/g
[O]=[Co].[O]=[Co][O][Co]=[O] | – | Crl:CD(SD) rat female, blood | oral, 734 mg Co/kg/day, 90 days | – | haematocrit | 51.3%
Cc1ccc([C@@H]2O[C@H](CO)[C@@H](O)[C@H](O)[C@H]2O)cc1Cc1ccc(-c2ccc(F)cc2)s1 | – | Japanese type 2 diabetes patients | 200 mg, day 16, 24 h urine collection | relative to: baseline | urinary calcium excretion change | -23.7 mg
CNC(=O)c1ccc(-c2cnc3ncc(Cc4ccc5ncccc5c4)n3n2)cc1F | – | Japanese patients | oral, 400 mg, grade 3/4 | – | Chills dose reduction/interruption | 0%
O=C(O)CCC(=O)O.[2H]C([2H])([2H])Oc1cc(C)c2[nH]ccc2c1CN1CC[C@@H](C2CC2)C[C@H]1c1ccc(C(=O)O)cc1 | multiple ascending dose | healthy Chinese subjects | 100 mg twice daily | – | subjects with TEAE Diarrhea | 12.5%
C[C@@H](Cn1ccc(-c2ccc(C#N)c(Cl)c2)n1)NC(=O)c1cc([C@@H](C)O)[nH]n1 | – | human, fasted | oral, 300 mg 14C-darolutamide solution, geometric mean | – | Vd/F | 201000 mL
CCO[C@H]1CCN(Cc2c(OC)cc(C)c3[nH]ccc23)[C@H](c2ccc(C(=O)O)cc2)C1 | – | PNH patients, active haemolysis | oral, 25 mg, 4 weeks, treatment | – | incidence of dyspepsia | 0%
C[C@@H](Nc1cc(F)cc(F)c1)c1cc(C(=O)N(C)C)cc2c(=O)cc(N3CCOCC3)oc12 | – | patients with advanced solid tumours | oral, dose not given, dose-expansion phase | – | patients with related serious AE | 10%
CO[C@H]1C[C@@H]2CC[C@@H](C)[C@@](O)(O2)C(=O)C(=O)N2CCCC[C@H]2C(=O)O[C@H]([C@H](C)C[C@@H]2CC[C@@H](OC(=O)NCCOCCOCCOCCOCCOCCOCCOCCOCCC(=O)N3CCc4cc(Cn5nc(-c6ccc7oc(N)nc7c6)c6c(N)ncnc65)ccc4C3)[C@H](OC)C2)C[C@@H](O)[C@H](C)/C=C(\C)[C@@H](O)[C@@H](OC)C(=O)[C@H](C)C[C@H](C)/C=C/C=C/C=C/1C | – | human patients, plasma | intravenous, 10 mg, cycle 1 day 1, 2 h infusion | – | Tmax | 1 h
CCCCOC(=O)N1CCN(C(=O)[C@H](CP(=O)(O)O)NC(=O)c2cc(N3CC[C@H](OC)C3)nc(-c3ccccc3)n2)CC1 | measured: Sodium | human, blood | 16 mg, 24 h | – | change from baseline | 0.1 ± 2 mmol/L
CC(C)(C)c1ccc(O)c(CN(Cc2cc(C(C)(C)C)ccc2O)C2CCC(NC(N)=O)CC2)c1 (stereo not drawn) | – | mouse plasma | 5 ng/mL, 3 months, -20 °C, long-term storage | – | recovery | 99.7 ± 1.15%
COc1ccc(C(O)COc2ccc(-c3csc(-c4ccc(OCC(O)c5ccc(OC)c(OC)c5)cc4)n3)cc2)cc1OC (stereo not drawn) | – | C57BL/6J mice, plasma | oral, 30 mg/kg | – | tlast | 48 h
COc1ccc([C@@H](O)c2cc(-c3ncnc4cc(N5CCOCC5)ccc34)c(F)cc2Cl)nn1 | – | locally advanced rectal cancer patients | 50 mg, together with: capecitabine and radiotherapy | – | diarrhoea TEAE incidence | 100%
C[C@H]1CN(C(=O)CC#N)[C@]12CCN(c1ncnc3[nH]ccc13)C2 | – | healthy human | oral, 1.5 mg, single dose | – | subjects with Paraesthesia | 12.5%
Cc1cc([C@H]2C[C@H]3[C@@H](CF)SC(N)=N[C@@]3(c3ccc(F)cc3F)CO2)on1 | – | male 129/SVE wild-type mouse, brain | subcutaneous, 100 mg/kg, 9 h | – | brain concentration | 44 nM
OC[C@H]1OC(O)[C@H](O)[C@@H](O)[C@@H]1O (stereo partly drawn) | – | aqueous solution | 5 mM, together with: glucosamine | – | osmolality | 3 mOsmol/kg
COc1ccc2c(c1)CN(C(=O)CCN1CCC(Cc3ccccc3)CC1)CC[S@@+]2[O-] | telemetry | conscious male beagle dogs | intravenous, 4 mg/kg, 1 h | – | systolic blood pressure | 127 ± 11 mmHg
CCc1cc(C(=O)NC)c2nccc(N3CCc4c(cc(Cn5ccnc5)cc4-c4cn(C)nc4C(F)(F)F)C3=O)c2c1 | – | Sprague Dawley rats | oral, 100 mg/kg once daily, 7 days | – | serum UREA level | 5.7 ± 0.49 mmol/L
O=C(O)[C@H]1O[C@@H](Oc2ccc(/C=C/c3cc(O)cc(O)c3)cc2)[C@H](O)[C@@H](O)[C@@H]1O | – | human, cerebrospinal fluid | dose not given, mean | – | CSF concentration | not detected
Cc1ccc(Sc2ccccc2N2CCNCC2)c(C)c1 | measured: haemoglobin decreased | healthy adult women | oral, 5 mg daily, 12 days | – | participants with TEAE | 0%
CCn1cc(C(=O)N2CCOCC2)c(=O)c2cc(NC3Cc4ccccc4C3)cnc21 | – | human, fed | oral suspension, 1200 mg/day twice daily, day 1, arithmetic mean | – | half-life | 3.48 h

A few entries again:
Compound | assay | system | setting | how to read | measurement | result
O=C(O)CCC(=O)O.[2H]C([2H])([2H])Oc1cc(C)c2[nH]ccc2c1CN1CC[C@@H](C2CC2)C[C@H]1c1ccc(C(=O)O)cc1 | multiple ascending dose | healthy Chinese subjects | 100 mg twice daily | – | subjects with TEAE Diarrhea | 12.5%
Cc1ccc([C@@H]2O[C@H](CO)[C@@H](O)[C@H](O)[C@H]2O)cc1Cc1ccc(-c2ccc(F)cc2)s1 | – | Japanese type 2 diabetes patients | 200 mg, day 16, 24 h urine collection | relative to: baseline | urinary calcium excretion change | -23.7 mg
CCO[C@H]1CCN(Cc2c(OC)cc(C)c3[nH]ccc23)[C@H](c2ccc(C(=O)O)cc2)C1 | – | PNH patients, active haemolysis | oral, 25 mg, 4 weeks, treatment | – | incidence of dyspepsia | 0%
COc1ccc2[nH]c([S+]([O-])Cc3ncc(C)c(OC)c3C)nc2c1 (stereo not drawn) | – | healthy Chinese volunteers CYP2C19 NM, plasma | oral, 20 mg single dose, enteric-coated tablets | – | AUC(0-t) | 457 ± 337 ng·h/mL
Cc1cc(C)c(S(=O)(=O)NCc2ccccn2)cc1C | – | octanol/buffer | pH 11 | – | logP | 2.55
N#C[C@@]12C[C@@H]1[C@@H](n1cnc3c(N[C@@H](C4CCC4)C4CC4)nc(I)nc31)[C@H](O)[C@@H]2O | – | Wistar rats male, plasma | oral, 3.0 mg/kg | – | elimination rate constant | 4.47e-05 s⁻¹
CNCc1ccc(-c2[nH]c3cc(F)cc4c3c2CCNC4=O)cc1 | – | patients | oral, 600 mg twice daily, grade 1 | – | decreased appetite incidence | 26.9%
